Results from different studies.
Each line is one published result; not all experiments were run side by side. Several values in a cell are separate wells, animals, samples, runs or records. Numbers after ± are the reported error.

| SMILES | cell line | test | conditions | scale | measurement | value |
| --- | --- | --- | --- | --- | --- | --- |
| O=C(N1CCCC1)n1cc(-c2ccc(-c3ccccc3)cc2)nn1 | mouse T cells | N-terminal labelling proteomics, item: Larp1 N-terminal peptide | 0.001 µM, 6 h | baseline: DMSO | SILAC ratio per peptide | 1.02 and 1.39 |
| Cn1ncc2cc(-c3cncc(Cl)c3N3CCC4(CCNC4=O)CC3)ccc21 | LS174T | gene expression, microarray, item: DDIT4 mRNA | concentration not given, 4 h | baseline: untreated cells | log2 fold change | 1.18 |
| Cc1ccc([N+](=O)[O-])cc1S(=O)(=O)N(C)/N=C/c1cnc2ccc(Br)cn12 | HuT78 | IL-6 signalling pathway, NanoString IPA | 50 nM, 10 h | direction not given | activation z-score | -3.11 |
| COC(=O)c1cc(NC2=NC(=O)C(=Cc3ccc(C)cc3)S2)ccc1OC(C)=O | MCF7 | GC-MS, item: 2-Butenedioic acid | 1 µM | baseline: DMSO | metabolite level | -0.17 fold change |
| CC(=O)Oc1ccccc1C(=O)[Se]CC(=O)Nc1cccc(C(F)(F)F)c1 | NCI60 ovarian subpanel | cell growth, inhibitor | five-dose |  | GI50 | 2.85 µM |
| COC(=O)c1cc(NC2=NC(=O)C(=Cc3ccc(N(C)C)cc3)S2)ccc1OC(C)=O | A549 | item: EYA3 mRNA | 2.93 µM (IC50), 24 h | baseline: DMSO | fold change | 0.026 |
| CCCCCCCCCCCCCCCC(=O)OCC(CSC[C@H](N)C(=O)N[C@@H](CO)C(=O)N[C@@H](CCCCN)C(=O)N[C@@H](CCCCN)C(=O)N[C@@H](CCCCN)C(=O)N[C@@H](CCCCN)C(=O)NCCCCCC(=O)N[C@@H](CCCCN)C(=O)N[C@@H](CC(C)C)C(=O)N[C@H](C(=O)N[C@@H](Cc1ccccc1)C(=O)N[C@@H](Cc1ccccc1)C(=O)N[C@@H](Cc1ccc2ccccc2c1)C(=O)O)C(C)C)OC(=O)CCCCCCCCCCCCCCC (some centres unmarked) | BV-2 | Western blot, item: MSR1 | concentration not given, unit not given | baseline: control | protein level | 1.33 and 1.39 |
| CC[C@H](CO)Nc1nc(NCc2ccc(-c3ccccn3)cc2)c2ncn(C(C)C)c2n1 | MOLT-4 | TMT mass spectrometry proteomics, item: CCNK protein | 1 µM, 1 h | baseline: DMSO | log2 fold change | -1.34 |
| CCOc1cncc(-c2ccc(NC(=O)C3(c4ccnc(NS(=O)(=O)C5CC5)n4)CCOCC3)nc2)n1 | L-363 | cell growth or viability, ATP luminescence | 72 h |  | IC50 | 0.005 µM |
| O=C(C[Se]C(=O)c1ccc2ccccc2c1)Nc1cccc(C(F)(F)F)c1 | NCI60 ovarian subpanel | cell growth | 10 µM, 48 h, one-dose |  | mean growth percent | -76.3% |
| Cc1ncsc1-c1ccc(C(C)NC(=O)C2CC(O)CN2C(=O)C(NC(=O)CCCCCCCCCCN2CCCC(Nc3ncc(Cl)c(Nc4ccccc4S(=O)(=O)C(C)C)n3)C2)C(C)(C)C)cc1 (centres unmarked) | 22Rv1 | RNA-seq, item: PLEKHG2 mRNA | concentration not given | baseline: DMSO | log2 fold change | -1.02 |
| CO[C@@H]1[C@@H](OC(N)=O)[C@@H](O)[C@H](Oc2ccc3c(O)c(NC(=O)c4ccc(O)c(CC=C(C)C)c4)c(=O)oc3c2C)OC1(C)C | HCT-116 BRCA2 wild-type |  | 75 µM, mean of replicates A, B | baseline: untreated | colony survival | 87.4% |
| COc1ccc2c(c1)c(CC(=O)[Se]CC(=O)Nc1cccc(C(F)(F)F)c1)c(C)n2C(=O)c1ccc(Cl)cc1 | NCI60 ovarian subpanel | total growth inhibition, inhibitor | five-dose |  | mean TGI | 4.06 µM |
| CN(C)CCN1CCN(c2ccc3nc(-c4ccc5nc(-c6ccc(C(F)(F)F)cc6)[nH]c5c4)[nH]c3c2)CC1 | SF-295 | SRB | 10 µM, 48 h |  | growth percent | 60.7% |
| CNS(=O)(=O)Nc1nccc(Cc2c(C)c3ccc(Oc4ncccc4F)cc3oc2=O)c1F | PL-21 | cell viability | 7 days |  | IC50 | 0.00117 µM |
| COC1CN([C@H]2CC[C@H]([C@@]3(C)Oc4c(Cl)cc(C(=O)NCc5c(SC)cc(C)[nH]c5=O)c(C)c4O3)CC2)C1 | J82 | cell growth or viability, ATP luminescence | 18 days |  | GI50 | > 10 µM |

| SMILES | cell line | test | conditions | scale | measurement | value |
| --- | --- | --- | --- | --- | --- | --- |
| O=C(NCc1cc(F)cc(F)c1)[C@@]1(O)CCN(c2ccc3[nH]ccc3c2)C1=O | Melanoma PDX-derived tumour cells | colony formation, soft agar clonogenic | concentration not given, 8-10 days |  | maximal inhibition | 31% |
| O=CCNCCOn1c(=O)n(OCCNCCO)c(=O)n(OCCNCCOn2c(=O)n(OCCNCCO)c(=O)n(OCCNCCO)c2=O)c1=O | A549 | cell growth or viability, MTT | 12.5 µg/mL, 48 h |  | viability | 46.9% |
| CCN(CC)CC(=O)Nc1cccc(-n2cc(-c3ccc4ccc(-c5cn(-c6cccc(NC(=O)CN(CC)CC)c6)nn5)cc4c3)nn2)c1 | RCC4 | PCR angiogenesis array, item: SERPINE1 | 5 x IC50, 6 h, normoxia | baseline: untreated | fold regulation | -2.32 |
| COC(=O)[C@H](C)NC(=O)[C@H](C)NC(=O)c1csc(-c2cccnc2)n1 | SK-OV-3 | cell growth or viability |  |  | EC50 | > 30 µM |
| CCN(C(=O)c1cc(F)ccc1Oc1nncnc1N1CCC2(C1)CN([C@H](CCCN(C)CCOC)C(C)C)C2)C(C)C | JIMT-1 | cell growth or viability | 7 days |  | GI50 | > 10 µM |
| Cc1ccc(-n2cc(CSc3nc4ccccc4n3Cc3cn(-c4ccc(C)cc4)nn3)nn2)cc1 | Caco-2 | MTT | 3.91 ppm |  | cytotoxicity | 5.5% |
| COc1ccccc1-c1ccncc1C(=O)Nc1nnc(OCc2ccc(Cl)cc2)s1 | MDA-MB-231 (BRCA1 wild-type) | colony formation | 0.375 µM | baseline: untreated control | colony survival | 96% |
| Cc1cc(Cl)cc(-c2ccnc3cc(CN4C(=O)C5C(C4=O)C5(C)C)sc23)c1C[C@@H]1CNCCO1 (some centres unmarked) | CHP-212 parental | SRB | 625 nM |  | viability | 36.9% |
| CN1CCCNC(=O)c2cccc(c2)C(=O)NCCCN(C)CCCNc2cccc3c2C(=O)c2cccc(c2C3=O)NCCC1 | SAS | RNA-Seq, item: CLASP2 mRNA | 1 µM, 6 h | baseline: untreated cells | log2 fold change | -1.41 |
| CC(C)c1ccc(N(C)c2ccc3c(c2)OCC[C@H]3CNc2cnccc2C(=O)O)cc1 | RERF-LC-MS | cell viability, CellTiter-Glo | 7 days |  | IC50 | 0.0659 µM |
| O=C(C[Se]C(=O)c1cc2ccccc2s1)Nc1cccc(C(F)(F)F)c1 | NCI60 ovarian subpanel | cell growth | 10 µM, 48 h, one-dose |  | mean growth percent | -75.7% |
| COCCCCCNc1nc(NCCCCCCN(C)C)c2cc(NC(=O)/C=C/CN(C)C)ccc2n1 | MCF7 | CellTiter-Glo | 0.7812 µM, 24 h, unit not given | baseline: DMSO-treated cells | viability | 1.04 and 0.977 and 1.02 |
| COc1cc(N2CCOCC2)ccc1Nc1ncc(Cl)c(Nc2ccccc2NS(C)(=O)=O)n1 | PC-9 del19/T790M/C797S cells | annexin V/PI staining | 1 µM, 24 h |  | apoptotic cells | 22.8% |
| Cc1[nH]c(=S)[nH]c(=O)c1/N=N/c1nnc(S)[nH]1 | Vero | cell viability, MTT | 5.0 µg/mL |  | inhibition | 16.6 ± 0.92% |
| O=C(C[Se]C(=O)c1ccccc1Nc1ccccc1)Nc1cccc(C(F)(F)F)c1 | NCI60 ovarian subpanel | total growth inhibition, inhibitor | five-dose |  | mean TGI | 3.49 µM |
| C[C@@H]1Cc2c([nH]c3ccccc23)[C@@H](c2c(F)cc(/C=C/C(=O)O)cc2F)N1C12CC(C1)C2 | MCF7 | RNA-seq, item: FMN1 mRNA | 1 µM, 24 h, E2-induced gene | baseline: DMSO vehicle | log2 fold change | -1.44 |

Excerpt of the above:
| SMILES | cell line | test | conditions | scale | measurement | value |
| --- | --- | --- | --- | --- | --- | --- |
| COC(=O)c1cc(NC2=NC(=O)C(=Cc3ccc(C)cc3)S2)ccc1OC(C)=O | MCF7 | GC-MS, item: 2-Butenedioic acid | 1 µM | baseline: DMSO | metabolite level | -0.17 fold change |
| CC(=O)Oc1ccccc1C(=O)[Se]CC(=O)Nc1cccc(C(F)(F)F)c1 | NCI60 ovarian subpanel | cell growth, inhibitor | five-dose |  | GI50 | 2.85 µM |
| COC(=O)c1cc(NC2=NC(=O)C(=Cc3ccc(N(C)C)cc3)S2)ccc1OC(C)=O | A549 | item: EYA3 mRNA | 2.93 µM (IC50), 24 h | baseline: DMSO | fold change | 0.026 |
